Experimental data gathered from unrelated publications.
Each numbered part is a random draw from the data of one study; scales do not carry over between parts. Substitutions count along the parent as printed.

Set 1 — target: CCNE1, cyclin fold, Cln2 fusion (human); technique: yeast growth competition, sequencing; sample: yeast; notes: strong parent motif; relative to: not given; reading: higher = stronger binding
Starting sequence: SCAPER docking peptide (human); SNARRSLNFGGST
Change | normalised enrichment score
S6P | 0.907
R4A | 0.276
G11L | 0.583
N2D | 0.818
A3W | 0.417
G10W | 1.58
A3V | 0.459
S6Q | 4.26

Set 2 — Molecule: HSPD1 (Homo sapiens, UniProt P10809); technique: cross-linking MS; notes: hits only
partner | interaction screen
ATP5F1A (Homo sapiens, UniProt P25705) | cross-linked
LYRM2 (Homo sapiens, UniProt Q9NU23) | cross-linked
PYCR2 (Homo sapiens, UniProt Q96C36) | cross-linked
HSPA9 (Homo sapiens, UniProt P38646) | cross-linked

Set 3 — technique: RNA Bind-n-Seq; molecule type: RNA; sample: in vitro; concentration: not given; relative to: input RNA pool; reading: higher = stronger binding
Target: RING finger protein unkempt homolog, zinc fingers 1-6, GST-SBP tag (UNK, Homo sapiens, UniProt Q9C0B0, residues 30-357)
Notes: RNA with constant flanks, human and mouse sites, ends assumed
All sequences stand within: GGGAGUUCUACAGUCCGACGAUC … CAACAGAGGAUUGAGCAUCA
Construct (chain): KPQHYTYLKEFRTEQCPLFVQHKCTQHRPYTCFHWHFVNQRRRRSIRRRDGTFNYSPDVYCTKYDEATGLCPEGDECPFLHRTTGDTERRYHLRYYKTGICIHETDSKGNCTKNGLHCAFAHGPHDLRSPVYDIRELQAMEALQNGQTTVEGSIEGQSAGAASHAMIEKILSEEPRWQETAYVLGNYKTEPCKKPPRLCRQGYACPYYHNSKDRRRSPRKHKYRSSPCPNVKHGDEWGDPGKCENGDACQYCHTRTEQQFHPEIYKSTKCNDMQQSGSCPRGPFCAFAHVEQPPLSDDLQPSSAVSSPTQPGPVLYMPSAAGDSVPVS
Strand | bound/input enrichment [ratio]
ACCCAGGGCUGCUACUGCCGCUUGUGGCUUCAGGAUGAAAGGUGAGACCCCGGUGAACAGCACUAUGAGUAUUGGGCAAGCACGCAAGAUGGUGGAACAGCUUAAGAUUGAAGCCAGCUU | 0.0969
CUGAUGCCGAUUGUGUACACGCCAACAGUUGGUCUUGCCUGCUGUCAAUAUGGGCACAUCUUUAGGAGACCUAAGGGAUUGUUUAUUUCAAUCUCAGACAGAGGUCAUGUUAGAUCAAUU | 0.569
GUUAGAAAAAGAAUUACAGCUUUGCAAUAUAACUAAUUGUUUCGCAUAAUUCUGAAUGUAAUAGAUAUGAAUAAUCAGCCUGUGUUUUUAAUGAACUUAUUUGUAUUUUCCCAAUCAUUU | 3.58
UCCUCACUUACUGGAAGUGGGAAGAGAAAUAGGAUAAGAAGUUCUCUGCCAUGGAGGCAAAAUAGUUGGAAAGGGUACAGUGAAAACAUGAGGAAGCUCAGAAAGACUCAUGAUAUUCCA | 0.472
UAAAUAUAGGCCUUGUUAUCUCAAAAAACAGAUCUGGUUCAAACUUAUUAUACCAAUAUCAUACUAUUUAAAUGUUCUAAGUAAACAAGCCAUGUGAGCAUCAAGUGGCAUUGGCUCUUU | 0.694
GUUCCCAAUGUUUCUCACAAUGUUGCCUUGAAAGUCAGUGUUCAGUCCUUGCCCAGACAAUCUAAUUAUCCAGUUUUGACGUGCAGUAUUCACACUAAUAUUGGCCUUUAUGAGAAAAGA | 0.204
AAAAAUGGAGACAAACAAGAUCUUUGAUGUGUUUCAUGUUUGUGGGCAGGUGAACAAUAUUUUAGAGUAUUUUAAAAAAUCAUUUCUUACAGAGAAAUUAAUUUGCAGUUGAAUGAAAGC | 18.3
GUUCCGGCUCUUGAUGUUUUUAAUUUUUUUAAGAAAAAUGAUUACGUACAUAAAAGUCCAGAUUUAAAUACAUUUACUAUCUCAUUUCAAAAAUGAUUUUAAUAAUCCAUUUCUUAAAAC | 0.403

Further values, each from its own experiment
Sequence | target | assay | test system | scale | endpoint | value
AMDTHLYFE | HLA class I histocompatibility antigen, A alpha chain, allele A*80:01 (Homo sapiens, UniProt P04439) | peptide-MHC binding | peptide | direction not given | z-score of log IC50 | 0.38

For quick reference, copied from above (set 3):
Strand | bound/input enrichment [ratio]
UCCUCACUUACUGGAAGUGGGAAGAGAAAUAGGAUAAGAAGUUCUCUGCCAUGGAGGCAAAAUAGUUGGAAAGGGUACAGUGAAAACAUGAGGAAGCUCAGAAAGACUCAUGAUAUUCCA | 0.472
UAAAUAUAGGCCUUGUUAUCUCAAAAAACAGAUCUGGUUCAAACUUAUUAUACCAAUAUCAUACUAUUUAAAUGUUCUAAGUAAACAAGCCAUGUGAGCAUCAAGUGGCAUUGGCUCUUU | 0.694
